# Measured values collected from several papers.
# Every numbered part comes from another study and shows a few of its results, in no order.

# Set 1
# Target: Histone acetyltransferase KAT6A, both winged helices, GST fusion (KAT6A, Homo sapiens, UniProt Q92794, residues 1-181)
# Technique: protein binding microarray
# Form: double-stranded DNA, one strand shown
# Medium: in vitro
# Concentration: not given
# Notes: 8-mer, flanks averaged, mean of 2 arrays, mostly near background
# Reference: not given
# Reading: higher = stronger binding
# Construct (chain): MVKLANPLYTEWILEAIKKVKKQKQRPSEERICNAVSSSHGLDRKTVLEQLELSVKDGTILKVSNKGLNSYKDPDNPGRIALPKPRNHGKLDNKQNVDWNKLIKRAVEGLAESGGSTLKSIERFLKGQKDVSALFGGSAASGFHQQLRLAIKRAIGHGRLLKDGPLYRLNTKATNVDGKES
Oligonucleotide,E-score
AGACGGAC,0.145
CTAGCGTA,0.065
CTTCATGA,0.0605
ATAGGCAA,-0.236
AATACCCA,-0.182
CATCTTGG,-0.212
AGGGCAAA,-0.0807
GCTGACTA,-0.0297
ATAGGGGG,-0.267
GCTTTGAA,-0.0336
ACGGCGCG,0.371
AGCCTCAC,-0.25
TCACGAAA,-0.024
GATCTGAC,0.0827
GCTGGAAC,-0.0969
GCATGAAA,-0.132
CCCCCACA,-0.303
TACGTAAA,-0.0123
AGAAGGCG,-0.087
TATGTAAA,-0.0814
ATTTTTCG,-0.0524
GATTAACA,0.0106
ATGTTGTG,-0.0147
GAAATGGA,-0.143
CGAAGACC,-0.00501

# Set 2
# Target: RING finger protein unkempt homolog, zinc fingers 1-6, GST-SBP tag (UNK, Homo sapiens, UniProt Q9C0B0, residues 30-357)
# Technique: RNA Bind-n-Seq
# Form: RNA
# Medium: in vitro
# Concentration: not given
# Notes: RNA with constant flanks, ends assumed
# Reference: input RNA pool
# Reading: higher = stronger binding
# Shared flanks, not repeated: GGGAGUUCUACAGUCCGACGAUC … CAACAGAGGAUUGAGCAUCA
# Construct (chain): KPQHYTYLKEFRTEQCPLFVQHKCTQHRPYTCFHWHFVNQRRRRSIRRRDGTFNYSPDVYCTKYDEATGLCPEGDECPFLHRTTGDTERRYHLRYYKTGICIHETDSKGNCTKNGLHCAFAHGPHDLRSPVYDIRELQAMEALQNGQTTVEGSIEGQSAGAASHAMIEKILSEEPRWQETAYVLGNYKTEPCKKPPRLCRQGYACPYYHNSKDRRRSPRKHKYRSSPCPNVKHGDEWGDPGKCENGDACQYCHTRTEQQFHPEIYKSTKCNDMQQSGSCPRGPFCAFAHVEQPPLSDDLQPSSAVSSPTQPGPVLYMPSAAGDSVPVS
Oligonucleotide,bound/input enrichment
CACUGCAUUGCCACUGAGAACAGCUUCAAACAGACCAUAGCCAAGAUCAACUUCAAAGUUUCCGAUUCAGAAAUGGUGGCCGUUGUGACAGACAAGUGGUCCCCGUGGACAUGGGCUGGC,0.0892 ratio
GAUGUUAGAGAUGUGGUUGGGCGGCCUAUAGAUCCAAGAGAAGGUCCUGGACGGCCUCCACCCGAUGGUAGGGAUCAUUUUGGAAGACCUCCUGUAGAUAUAAGAGAGAAUCUUGUGAGG,4.23 ratio
CAGUCCCCGUGUCCCAGUGCAGGACGAUGUGAACAAAAACUCAAAGCGGACCCUCUAUUGCCGUUCUUGAUUCUCGAAAUGUGCUAUUAUUGUUUGUCUUUUUUUUUUUUUUUUUAAAGA,0.677 ratio
GCAGCAAGAUCAUGUGCAUAUCAUCCCAUUGUAAAGCAACUUCAAAAAUAUGGGAACAGUCCGUUAUUUUUACACAGUUCUUUUUGUUUGUGUGUGUGUGUGUGUGCUGUCGCUUGUCGA,0.228 ratio
CCUGUUCGAGGCAGCUAUCUUACAGACUGCAUGAAUGUAAGAGUAGGAAUGGGGUGGGUGUCCGGAUCAUUCGGGAUCUUCGACACUUGAAACAAAAUUACACCUGGGAGCUGCAGCCAG,0.286 ratio
CCAGUUUGUAUGUACAUUAUUCAUAUUCCUCUCUGUUGUGUUUCGGGGGGAAAAGACAUUUCCGCCUUUUUUAAAAGUUACUGAUUUAAUUUCAUGUUAUUUGGUUGCAUGAAGUUGCCC,0.522 ratio

# Set 3
# Target: Sal-like protein 4, full length isoform A (SALL4, Homo sapiens, UniProt Q9UJQ4, residues 1-1053)
# Sequence of UniProt Q9UJQ4 (whole entry, looked up): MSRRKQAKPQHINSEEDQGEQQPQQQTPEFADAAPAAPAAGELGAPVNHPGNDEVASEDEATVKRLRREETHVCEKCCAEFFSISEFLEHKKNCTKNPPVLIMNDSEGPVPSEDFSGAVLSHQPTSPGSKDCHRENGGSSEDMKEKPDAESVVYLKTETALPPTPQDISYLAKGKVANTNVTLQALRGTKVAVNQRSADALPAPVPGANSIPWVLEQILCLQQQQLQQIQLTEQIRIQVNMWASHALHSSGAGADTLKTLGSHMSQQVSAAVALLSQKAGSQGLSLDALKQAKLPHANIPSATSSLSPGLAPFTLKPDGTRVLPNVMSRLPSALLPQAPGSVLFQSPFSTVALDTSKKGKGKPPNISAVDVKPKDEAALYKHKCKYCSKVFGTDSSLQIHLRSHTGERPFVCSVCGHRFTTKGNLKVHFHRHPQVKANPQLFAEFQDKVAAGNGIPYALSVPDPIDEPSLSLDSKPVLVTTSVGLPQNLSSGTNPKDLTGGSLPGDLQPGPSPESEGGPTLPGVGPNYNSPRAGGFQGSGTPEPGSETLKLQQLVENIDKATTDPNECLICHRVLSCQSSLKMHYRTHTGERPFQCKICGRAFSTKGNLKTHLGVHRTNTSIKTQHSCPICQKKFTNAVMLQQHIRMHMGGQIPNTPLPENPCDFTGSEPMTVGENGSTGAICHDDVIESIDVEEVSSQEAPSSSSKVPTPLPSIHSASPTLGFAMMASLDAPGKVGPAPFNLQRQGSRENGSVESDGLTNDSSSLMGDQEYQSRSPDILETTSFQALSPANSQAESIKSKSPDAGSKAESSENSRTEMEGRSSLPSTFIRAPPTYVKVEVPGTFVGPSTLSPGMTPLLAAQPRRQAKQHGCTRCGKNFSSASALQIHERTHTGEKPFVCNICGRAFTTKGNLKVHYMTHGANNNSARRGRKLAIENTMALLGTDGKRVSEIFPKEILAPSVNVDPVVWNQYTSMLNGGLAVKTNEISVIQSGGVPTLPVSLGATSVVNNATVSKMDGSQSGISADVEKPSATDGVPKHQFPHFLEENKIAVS
# Technique: universal PBM
# Form: double-stranded DNA, one strand shown
# Medium: in vitro
# Concentration: 600 nM
# Notes: 8-mer, flanks averaged, mean of replicates
# Reading: higher = stronger binding
Oligonucleotide,E-score
ACAGACAC,-0.0816
AAAACGAC,0.0576
AGGTGTAG,-0.12
CGAGAGCC,-0.246
CGCAGCAA,-0.152
GTGAAAAA,0.26
GATTGTTA,0.216
GCATCACA,0.00643
GGTGTTCA,-0.0112
GGAGATAC,-0.227
ATACAGTC,0.0966
ATCATTTG,0.22
CTACCATA,0.131
AGATACGA,0.137
AACTGTGC,-0.115
CGGAGTTA,-0.148
AGTGGGGA,-0.164

# Set 4
# Target: Interferon regulatory factor 5, full length, phosphomimetic (IRF5, Homo sapiens, UniProt Q13568-2, residues 1-514, S451D/S453D/S456D/S462D)
# Technique: protein-binding microarray
# Form: double-stranded DNA, one strand shown
# Medium: in vitro
# Concentration: 940 nM top
# Notes: 60-bp whole probe
# Together with: salmon DNA 0.4 mg/ml
# Reference: random background probes
# Reading: higher = stronger binding
# Shared flanks, not repeated: GCCTAGCAC … GTCTTGATTCGCTTGACGCTGCTG
Oligonucleotide,fitted relative affinity
TCAGCTTCCTCTTTCACACTGTGCTAG,1.62 z-score
TTAGGACTGTGTCTCGGTTAGTGCTAG,1.14 z-score
GACGGTTTCGACACTGCGGACGTGCTA,7.05 z-score
GACGATATCGGGTTTCGATACGTGCTA,5.42 z-score
GACGGTTTCCTTCTGCTGACGTGCTAG,1.58 z-score
TTAGATATCCTTCTCCTTTAGTGCTAG,0.538 z-score
TTAGGAGTGGACTTTCGGTTAGTGCTA,2.44 z-score
GACGGTCTGCTACTGCTGACGTGCTAG,-0.703 z-score
CTCACCGCCAACCCAGTTCCGTGCTAG,0.82 z-score
GACGGTTTCGGGCTTCGGGACGTGCTA,6.5 z-score
GACGGACTGGGTCTCGGGATGTGCTAG,-0.0634 z-score
TTAGATATCGGCTTTCGATTAGTGCTA,1.63 z-score
ATCTCACTCTGTCCCTCTGTGTGCTAG,1.8 z-score
AATTGTCTCTGTCCCTGTTTGTGCTAG,1.94 z-score
TCAAGTGTGTGTCTGATACTGTGCTAG,-0.158 z-score
GACGTTTTCGACTATCGGGACGTGCTA,0.981 z-score
GACTGTATCGGTCTCGGGACGTGCTAG,3.66 z-score
TCATTCCTGATCTCTGGTACTGTGCTA,0.298 z-score
GAATGAATGGACATTTCTTCGTGCTAG,-0.347 z-score
GACGGTTTCGACTTTCGGGCCGTGCTA,6.79 z-score
TTAGGTTCCCATTTCCTTTAGTGCTAG,0.725 z-score
GATGGTCTCGGTATCGGGACGTGCTAG,5.41 z-score
TTTCCTCTTTCTTTGCTTCAGTGCTAG,2.84 z-score

# Set 5
# Target: Centromere-binding protein 1, full length, N-terminal tag (CBF1, Saccharomyces cerevisiae, UniProt P17106, residues 1-351)
# Sequence of UniProt P17106 (whole entry, looked up): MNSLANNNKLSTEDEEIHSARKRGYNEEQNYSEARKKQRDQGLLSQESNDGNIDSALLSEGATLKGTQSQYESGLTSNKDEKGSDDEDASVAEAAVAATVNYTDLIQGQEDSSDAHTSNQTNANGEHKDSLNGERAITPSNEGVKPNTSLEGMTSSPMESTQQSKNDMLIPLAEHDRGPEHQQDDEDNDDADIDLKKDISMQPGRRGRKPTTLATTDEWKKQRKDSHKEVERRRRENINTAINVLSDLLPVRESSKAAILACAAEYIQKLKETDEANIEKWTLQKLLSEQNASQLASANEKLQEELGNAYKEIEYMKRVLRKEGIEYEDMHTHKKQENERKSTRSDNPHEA
# Technique: protein-binding microarray
# Form: double-stranded DNA, one strand shown
# Medium: in vitro
# Concentration: 0.8 µM
# Notes: whole 60-bp probe, no competitor
# Reading: higher = stronger binding
# Shared flanks, not repeated: … GTCTTGATTCGCTTGACGCTGCTG
Oligonucleotide,fluorescence intensity
GAACGGATCATCCACCACGAACCCCTATCCTTTTAG,503 a.u.
GAAATCATCATGACGCACGATATCAATTCTTTGTAG,608 a.u.
GAAGATAAAACTCCGCACGTTGCTTGATTAATTTAG,657 a.u.
CTAGCTGCACCGCACCACCTTGCAGGTCCCGTGTTC,1550 a.u.
CTACCAGAGATGCTCCACGTGAAAGATCACCAATTC,1460 a.u.
CTATACGGTAATTGCCTCACCTGTGGTGACTAGTTC,498 a.u.
GAAGTTGCTAGGAACGTGATGATGGATTTCGTTTAG,1120 a.u.
CTAGGGCACTTTGGTCTGACATCACTTTTTTTATTC,519 a.u.
CTACCATATTGTTACCACCACCTCCCCGTGATTTTC,1150 a.u.
TGTACGAAGCTATACCACCACACTATAGTAGTTAGG,545 a.u.
GAAAATGCCTCGGGAGCCACCACGTTTATTTTTTAG,573 a.u.
GAATGTGTGTACCATCACGTTTCTTGTTAAATATAG,1190 a.u.
CTAATATAGTTACATGTGATGAATGTATGGACATTC,2520 a.u.
CTAAGAAACATACATCATCACTCAGACGATAAGTTC,537 a.u.
CTAAAGTGCAAAAGTTGCGTGAATCAGAAAGTTTTC,533 a.u.
GAAACTACTTTGTATCACGCTTGTGCTAACATCTAG,570 a.u.
CTAGAAATACAAGAACTGATGATGTAACAGAGTTTC,519 a.u.
GAATATGAGTACCGTCACGTTTCCTGTTAAAGATAG,1730 a.u.
GAAACGTAACGTTGTCACGTCCACAGAAGATGCTAG,679 a.u.
GAACACTTTGGTTATGTCACCATGGTCAGATGATAG,946 a.u.
GAAAAACAATGGCGTGGGGTGATGAAATAAGCATAG,570 a.u.
CTATGTTGAATGTGACACGTAACTCTAGGCCATTTC,641 a.u.
CTAGTCCGATACCATCACCTTCAATGAACGAGATTC,469 a.u.
GAATTCAAGTTATATAACGTGAGAGATAAAATATAG,719 a.u.
GAAGAAATTGATAATCACGTGATCACGGCTTTCTAG,48200 a.u.

# Set 6
# Target: Ras GTPase-activating protein-binding protein 1, C-terminal RGG region (G3BP1, Homo sapiens, UniProt Q13283)
# Sequence of UniProt Q13283 (whole entry, looked up): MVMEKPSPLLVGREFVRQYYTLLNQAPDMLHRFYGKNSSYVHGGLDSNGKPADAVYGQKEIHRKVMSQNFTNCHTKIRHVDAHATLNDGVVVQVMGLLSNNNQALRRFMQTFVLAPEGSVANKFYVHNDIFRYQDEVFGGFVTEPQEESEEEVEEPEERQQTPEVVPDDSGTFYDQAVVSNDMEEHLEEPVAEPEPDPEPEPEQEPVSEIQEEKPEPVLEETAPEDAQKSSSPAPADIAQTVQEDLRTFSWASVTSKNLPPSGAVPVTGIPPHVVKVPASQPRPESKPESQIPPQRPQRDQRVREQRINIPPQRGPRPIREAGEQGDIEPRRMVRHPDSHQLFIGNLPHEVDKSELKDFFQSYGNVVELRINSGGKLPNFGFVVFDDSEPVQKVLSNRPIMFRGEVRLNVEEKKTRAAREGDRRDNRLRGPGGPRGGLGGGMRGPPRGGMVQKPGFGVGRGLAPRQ
# Technique: RNA Bind-n-Seq
# Form: RNA
# Medium: in vitro
# Concentration: 1 µM
# Notes: whole 134-nt RNA, ends assumed
# Together with: 150 mM KCl
# Reference: input library
# Reading: higher = stronger binding
# Shared flanks, not repeated: GGGAGUUCUACAGUCCGACGAUC … UGGAAUUCUCGGGUGUCAAGG
Oligonucleotide,log2 enrichment
GUGCUACACAUCGUAUGUACCGAAUCGGGGAAAAAAAGGGGUUUUUUUGGGGUUUUUUUGGGGAAAGUAUUAUGUUACGCCGUUCGGAUC,0.434
UCAAGUCCUGUGCUACACAUCGUAUGUACCGAAUCGGGCCCGGGCCCGGCCCGGGAAAGUAUUAUGUUACGCCGUUCGGAUCUGCACUUC,-2
AAGUCCUGUGCUACACAUCGUAUGUACCGAAUCGGGAAAAAAAGGGUUUGGGAGGGAAAGUAUUAUGUUACGCCGUUCGGAUCUGCACUU,1.15
GUCCUGUGCUACACAUCGUAUGUACCGAAUCGGGCCCCCGGGGCCCCCGGCCCCCGGGAAAGUAUUAUGUUACGCCGUUCGGAUCUGCAC,-1.56
CUCAAGUCCUGUGCUACACAUCGUAUGUACCGAAUCGGUUUGGUUUGGUUUGGAAAGUAUUAUGUUACGCCGUUCGGAUCUGCACUUCCA,-1.28
AAGUCCUGUGCUACACAUCGUAUGUACCGAAUCGGGGAGGGGUUUGGGGUUUGGGGAAAGUAUUAUGUUACGCCGUUCGGAUCUGCACUU,2.33
UGGGAGGUGGAUUUUGUUUAUUUUUUUAGCUCAUGUCCAGGGGUGGGAAUUUUUUUUUAAUAUGUGUCAUGAAUAAAGUUGUUUUUGAAA,2.69
UUCCUCAAGUCCUGUGCUACACAUCGUAUGUACCGAAUCGGUGGUGGAGGAAAGUAUUAUGUUACGCCGUUCGGAUCUGCACUUCCAGCA,-1.01
CCUGUGCUACACAUCGUAUGUACCGAAUCGGCCCCCCCGGGGCCCCCCCGGCCCCCCCGGGAAAGUAUUAUGUUACGCCGUUCGGAUCUG,-1.68

# Repeated from above (set 6):
Oligonucleotide,log2 enrichment
CUCAAGUCCUGUGCUACACAUCGUAUGUACCGAAUCGGUUUGGUUUGGUUUGGAAAGUAUUAUGUUACGCCGUUCGGAUCUGCACUUCCA,-1.28
UCAAGUCCUGUGCUACACAUCGUAUGUACCGAAUCGGGCCCGGGCCCGGCCCGGGAAAGUAUUAUGUUACGCCGUUCGGAUCUGCACUUC,-2
GUGCUACACAUCGUAUGUACCGAAUCGGGGAAAAAAAGGGGUUUUUUUGGGGUUUUUUUGGGGAAAGUAUUAUGUUACGCCGUUCGGAUC,0.434
UUCCUCAAGUCCUGUGCUACACAUCGUAUGUACCGAAUCGGUGGUGGAGGAAAGUAUUAUGUUACGCCGUUCGGAUCUGCACUUCCAGCA,-1.01
AAGUCCUGUGCUACACAUCGUAUGUACCGAAUCGGGGAGGGGUUUGGGGUUUGGGGAAAGUAUUAUGUUACGCCGUUCGGAUCUGCACUU,2.33
AAGUCCUGUGCUACACAUCGUAUGUACCGAAUCGGGAAAAAAAGGGUUUGGGAGGGAAAGUAUUAUGUUACGCCGUUCGGAUCUGCACUU,1.15
CCUGUGCUACACAUCGUAUGUACCGAAUCGGCCCCCCCGGGGCCCCCCCGGCCCCCCCGGGAAAGUAUUAUGUUACGCCGUUCGGAUCUG,-1.68
UGGGAGGUGGAUUUUGUUUAUUUUUUUAGCUCAUGUCCAGGGGUGGGAAUUUUUUUUUAAUAUGUGUCAUGAAUAAAGUUGUUUUUGAAA,2.69
GUCCUGUGCUACACAUCGUAUGUACCGAAUCGGGCCCCCGGGGCCCCCGGCCCCCGGGAAAGUAUUAUGUUACGCCGUUCGGAUCUGCAC,-1.56
